Results of several laboratories.
Numbered parts are unrelated; each lists some results of a single study. ± marks the error that the study gave.

Set 1
Sample: human liver microsomes
Concentration: 5 µM
Time: 15 min
Structure (SMILES)	compound metabolized
CCOCc1nnc2c(C(F)(F)F)c(-c3ccc4[nH]ccc4c3)ccn12	52%
COc1ccc(CNc2ccc(-c3ccn4c(CC5CC5)nnc4c3C(F)(F)F)cc2F)cn1	22%
Clc1c(-c2ccc(Oc3ccccc3)cc2)ccn2c(CC3CC3)nnc12	6%

Further values, each from its own experiment
TP53 M133L/N239Y/N268D/V203A/Y220C DNA-binding domain: Cellular tumor antigen p53, DNA-binding domain (TP53, Homo sapiens, UniProt P04637, M133L/N239Y/N268D/V203A/Y220C)
crk3 with CYC6: crk3, with CYC6 (Leishmania mexicana, UniProt O15851)
crk3: crk3 (Leishmania mexicana, UniProt O15851)
Structure (SMILES)	target or system	test	test system	conditions	how to read	quantity	value
Cc1nc(Cl)cnc1C#N	TP53 M133L/N239Y/N268D/V203A/Y220C DNA-binding domain	DSF	–	1 mM, 4 h, 20 °C	–	delta Tm	1.28 °C
O=C(O)COc1ccc(Br)cc1/C=N/NC(=O)c1ccccc1	–	–	mouse, PTZ-induced seizures	oral, 20 mg/kg, 0.5 h, together with: PTZ 85 mg/kg i.p.	–	seizure protection	60%
COc1cc(-c2ccc3nc(NC(=O)C4CCCCC4)nn3c2)ccc1O	crk3 with CYC6	inhibitor, IMAP fluorescence polarisation	–	together with: ATP 100 µM	–	IC50	240 nM
O=C(O)COc1ccc(Br)cc1C=NNC(=O)Cc1ccccc1 (mixture of isomers)	–	ELISA	mouse, pilocarpine epilepsy model, hippocampus	oral, 20 mg/kg	relative to: epileptic controls	Iba-1 level reduction	49.8%
Cc1ccc(C)c(-c2ccc3nc(NC(=O)C4CCCCC4)nn3c2)c1	crk3	enzyme activity, inhibitor, radiometric	–	–	–	IC50	650 nM
Cc1cc(C#N)cnc1Cl	TP53 M133L/N239Y/N268D/V203A/Y220C DNA-binding domain	DSF	–	1 mM, 24 h, 20 °C	–	delta Tm	no effect
O=C(O)COc1ccccc1/C=N/NC(=O)CNc1ccc(Cl)cc1	–	–	mouse, PTZ-induced seizures	oral, 20 mg/kg	relative to: valproic acid 300 mg/kg	relative protection	133%
Cc1cccc(-c2ccc3nc(N)nn3c2)c1	crk3	enzyme activity, inhibitor, radiometric	–	–	–	IC50	> 100000 nM
Cc1nc(C#N)cnc1Cl	TP53 M133L/N239Y/N268D/V203A/Y220C DNA-binding domain	DSF	–	1 mM, 4 h, 20 °C	–	delta Tm	4.43 °C
O=C(O)COc1ccc(Br)cc1/C=N/NC(=O)c1ccc(Cl)cc1	–	–	mouse, pilocarpine-induced seizures	oral, 20 mg/kg, together with: pilocarpine 300 mg/kg i.p.	–	latency to forelimb clonus	15.1 ± 0.43 min
Brc1ccccc1Nc1ncnc2[nH]ncc12	crk3 with CYC6	inhibitor, IMAP fluorescence polarisation	–	together with: ATP 100 µM	–	IC50	6000 nM

Repeated from above (further values, each from its own experiment):
Structure (SMILES)	target or system	test	test system	conditions	how to read	quantity	value
O=C(O)COc1ccc(Br)cc1/C=N/NC(=O)c1ccc(Cl)cc1	–	–	mouse, pilocarpine-induced seizures	oral, 20 mg/kg, together with: pilocarpine 300 mg/kg i.p.	–	latency to forelimb clonus	15.1 ± 0.43 min
Brc1ccccc1Nc1ncnc2[nH]ncc12	crk3 with CYC6	inhibitor, IMAP fluorescence polarisation	–	together with: ATP 100 µM	–	IC50	6000 nM
